Values quoted from earlier work, collected from citations in different studies.
Numbers after ± are the reported error.
Sequence of UniProt P21728 (whole entry, looked up): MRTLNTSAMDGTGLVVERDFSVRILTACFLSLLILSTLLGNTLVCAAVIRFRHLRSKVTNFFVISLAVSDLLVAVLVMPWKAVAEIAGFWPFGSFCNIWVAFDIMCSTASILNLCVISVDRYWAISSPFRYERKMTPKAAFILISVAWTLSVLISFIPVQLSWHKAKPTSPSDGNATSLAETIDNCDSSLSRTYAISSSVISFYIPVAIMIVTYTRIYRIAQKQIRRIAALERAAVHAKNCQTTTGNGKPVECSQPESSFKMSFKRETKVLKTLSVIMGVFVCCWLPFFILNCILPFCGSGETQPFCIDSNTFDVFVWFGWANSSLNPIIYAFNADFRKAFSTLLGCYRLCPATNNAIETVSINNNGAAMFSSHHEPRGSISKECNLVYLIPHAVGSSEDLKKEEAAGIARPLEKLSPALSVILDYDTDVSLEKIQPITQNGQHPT
Sequence of UniProt P21918 (whole entry, looked up): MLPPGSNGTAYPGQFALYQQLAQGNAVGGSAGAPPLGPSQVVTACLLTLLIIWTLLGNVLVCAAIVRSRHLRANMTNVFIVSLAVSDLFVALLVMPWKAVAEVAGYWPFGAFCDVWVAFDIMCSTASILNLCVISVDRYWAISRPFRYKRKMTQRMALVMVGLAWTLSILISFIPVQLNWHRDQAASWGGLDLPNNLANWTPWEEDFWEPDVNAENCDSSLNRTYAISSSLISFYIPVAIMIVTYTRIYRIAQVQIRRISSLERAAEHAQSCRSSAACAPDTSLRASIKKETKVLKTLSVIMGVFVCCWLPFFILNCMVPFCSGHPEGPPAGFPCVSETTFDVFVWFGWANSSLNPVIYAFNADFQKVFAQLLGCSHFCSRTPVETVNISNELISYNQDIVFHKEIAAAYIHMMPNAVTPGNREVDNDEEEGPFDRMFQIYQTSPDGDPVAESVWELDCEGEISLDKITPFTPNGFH

`CCC[C@H](C(=O)c1ccc2c(c1)OCO2)N1CCCC1` gave an IC50 of 726 ± 150 nM (norepinephrine transporter, rat; norepinephrine uptake, inhibitor; brain synaptosomes).
`C=CCN(CC=C)CCc1c[nH]c2ccc(OC)cc12` has a Ki of greater than 10000 nM (DRD5 (Homo sapiens, UniProt P21918)).
For `COc1cc2c(cc1C)CC(N)C2` (stereo not drawn), the IC50 was 19800 nM (dopamine transporter; [3H]dopamine uptake; synaptosomes).
`C=CCN(CC=C)CCc1c[nH]c2ccccc12` gave a Ki of greater than 10000 nM (DRD1 (Homo sapiens, UniProt P21728); binding; cloned human receptor; with: [3H]SCH23390).
The IC50 of `CNC(C)C(=O)c1cccc(Br)c1` (stereo not drawn) is reported as 2000 nM (SERT; uptake).
The kcat of `C[C@]12CCC(=O)CC1=CC[C@@H]1[C@@H]2CC[C@]2(C)C(=O)CC[C@@H]12` is reported as 17800 ± 100 s⁻¹ (ketosteroid isomerase Y30F; substrate; pH 7.0, 3.3 % methanol).
`NC1Cc2cc3c(cc2C1)OCO3` gave an IC50 of 512 nM (serotonin transporter; [3H]serotonin uptake; synaptosomes).
The IC50 of `CNC(C)C(=O)c1ccc(C)cc1` (stereo not drawn) is reported as 762 ± 79 nM (dopamine transporter, rat; dopamine uptake, inhibitor; brain synaptosomes).
For `mastoparan`, the EC50 was 10000 nM (G proteins (mammalian); G protein activation).
`CCCC(C(=O)c1ccc(O)c(OC)c1)N1CCCC1` (stereo not drawn) gave an IC50 of 784 ± 87 nM (dopamine transporter, rat; dopamine uptake, inhibitor; brain synaptosomes).
With `NCCc1ccccc1` the EC50 was 209 nM (TAAR1, mouse).
The IC50 of `COC(=O)[C@H](c1ccc(F)cc1)[C@H]1CCCCN1` (racemic) is reported as greater than 10000 nM (serotonin transporter; binding; with: [3H]citalopram).

Repeated from above:
With `NCCc1ccccc1` the EC50 was 209 nM (TAAR1, mouse).
